# Measured values gathered from unrelated publications.
# Several values in a cell are separate wells, animals, samples, runs or records. Numbers after ± are the reported error.
# Organism: Acinetobacter baumannii
Compound,test,system,conditions,how to read,endpoint,result
C[C@@H](O)[C@H]1C(=O)N2C(C(=O)O)=C(S[C@@H]3CN[C@H](C(=O)N(C)C)C3)[C@H](C)[C@H]12,checkerboard,carbapenem-resistant,"concentration not given, with: anionic gold nanoparticle 8 µg/mL",relative to: MIC alone over combination,MIC fold reduction,8 fold
Cn1c(=O)ccc2ccc(F)c(CCNC[C@H]3CN(c4cnc5c(n4)NC(=O)CO5)C(=O)O3)c21,,,,,MIC90,0.5 µg/mL
CNC(C)C1CCC(N)C(OC2C(N)CC(N)C(OC3OCC(C)(O)C(NC)C3O)C2O)O1 (stereo not drawn),,"19606, biofilm","25 µg/mL, with: HNP1 8 µM",,survival,14.4% and 8.5% and 6.8% and 22.1% and 11.9% and 15.3%
C[C@@H](O)[C@H]1C(=O)N2C(C(=O)O)=C(SCCN=CN)C[C@H]12,checkerboard,carbapenem-resistant,"concentration not given, with: anionic gold nanoparticle 8 µg/mL",relative to: MIC alone over combination,MIC fold reduction,8 fold
N=C(N)NCCC[C@H](NC(=O)[C@H](Cc1c[nH]c2ccccc12)NC(=O)[C@@H](N)CCCNC(=N)N)C(=O)N[C@@H](Cc1c[nH]c2ccccc12)C(=O)N[C@@H](Cc1ccccc1)C(=O)N[C@@H](CCC(N)=O)C(=O)N[C@@H](Cc1ccccc1)C(=O)N[C@@H](CCC(N)=O)C(=O)N[C@@H](Cc1ccccc1)C(=O)N[C@@H](CCCCN)C(N)=O,,,,,MBC,570 µM
NC[C@H]1O[C@H](O[C@H]2[C@H](O)[C@@H](O[C@H]3O[C@H](CO)[C@@H](O)[C@H](N)[C@H]3O)[C@H](N)C[C@@H]2N)[C@H](O)[C@@H](O)[C@@H]1O,colony counting,"19606, biofilm","25 µg/mL, 12 h, without HNP1",,survival,2.2% and 3.46% and 1.93% and 2.25% and 2.83% and 2.56%
N=C(N)NCCC[C@H](NC(=O)[C@@H](N)CCCNC(=N)N)C(=O)N[C@@H](Cc1c[nH]c2ccccc12)C(=O)N[C@@H](Cc1c[nH]c2ccccc12)C(=O)N[C@@H](CCC(N)=O)C(=O)N[C@@H](Cc1ccccc1)C(=O)N[C@@H](CCC(N)=O)C(=O)N[C@@H](Cc1ccccc1)C(=O)N[C@@H](CCCCN)C(N)=O,,,,,MBC,39 µM
C[C@@H](O)[C@H]1C(=O)N2C(C(=O)O)=C(S[C@@H]3CN[C@H](CNS(N)(=O)=O)C3)[C@H](C)[C@H]12,checkerboard,carbapenem-resistant,"concentration not given, with: anionic gold nanoparticle 8 µg/mL",relative to: MIC alone over combination,MIC fold reduction,8 fold
O=C(O)CN(CC(=O)O)CC(=O)O,,NDM-2 producer,"32 µg/mL, with: meropenem",,meropenem MIC,4 µg/mL
N=C(N)c1ccc(OCc2cc(COc3ccc(C(=N)N)cc3)cc(-c3ccccc3)c2)cc1,,ATCC 17978,"concentration not given, with: rifampicin",,MIC in combination,3.13 µg/mL
CC[C@H](C)[C@H](NC(=O)[C@H](C)NC(=O)[C@H](CCCCN)NC(=O)[C@H](CC(C)C)NC(=O)[C@H](C)NC(=O)[C@@H](NC(=O)[C@H](Cc1c[nH]cn1)NC(=O)[C@H](CC(C)C)NC(=O)[C@@H](NC(=O)[C@@H](NC(=O)[C@H](CCCCN)NC(=O)[C@H](C)NC(=O)[C@H](C)NC(=O)[C@H](CO)NC(=O)[C@H](CCCCN)NC(=O)[C@H](Cc1ccccc1)NC(=O)[C@@H](NC(=O)[C@H](CCCCN)NC(=O)[C@H](CC(C)C)NC(=O)[C@H](Cc1ccccc1)NC(=O)[C@H](CO)NC(=O)[C@H](CCCCN)NC(=O)[C@H](Cc1c[nH]c2ccccc12)NC(=O)[C@H](CCCCN)NC(C)=O)[C@@H](C)O)[C@@H](C)O)C(C)C)[C@@H](C)O)C(=O)N[C@@H](CO)C(=O)N[C@@H](CO)C(N)=O,,ATCC 19606,,,MBC90,2 µg/mL
C[C@@H](O)[C@H]1C(=O)N2C(C(=O)O)=C(S[C@@H]3CN[C@H](C(=O)N(C)C)C3)[C@H](C)[C@H]12,,"rat, lung","intravenous bolus, 15 mg/kg twice daily",relative to: early control,change in lung bacterial load,-3.4 log10 CFU/g
CC(N)C(O)CCCCCCCCCCCCCCC(=O)CCCCCCCC(O)C(C)N (stereo not drawn),resazurin,ATCC 19606,50 µM,,growth inhibition,83 ± 1.05%
CN(C)[C@@H]1C(O)=C(C(N)=O)C(=O)[C@@]2(O)C(O)=C3C(=O)c4c(O)cccc4[C@@](C)(O)[C@H]3C[C@@H]12,,"19606, biofilm","50 µg/mL, without HNP1",,survival,69.5% and 71.4% and 59.7% and 71% and 58.1% and 68.7%
N=C(N)NCCC[C@H](NC(=O)[C@H](Cc1c[nH]c2ccccc12)NC(=O)[C@@H](N)CCCNC(=N)N)C(=O)N[C@@H](Cc1c[nH]c2ccccc12)C(=O)N[C@@H](CCC(N)=O)C(=O)N[C@@H](Cc1ccccc1)C(=O)N[C@@H](CCC(N)=O)C(=O)N[C@@H](Cc1ccccc1)C(=O)N[C@@H](CCCCN)C(N)=O,,,,,MBC,77 µM
